Assay results of several laboratories.
Cell line: HEK293

| SMILES | technique | concentration | time | setting | relative to | viability |
| --- | --- | --- | --- | --- | --- | --- |
| N=C(N)NCCC[C@@H]1NC(=O)[C@H](CCCCN)NC(=O)[C@@H](Cc2ccc(O)cc2)NC(=O)[C@H](CC(=O)O)NC(=O)CNC1=O | CCK-8 | 250 µM | 24 h | – | – | no effect |
| CCOC(=O)c1cc2cc(C(=O)N3CCN(CCOc4ccccc4)CC3)ccc2[nH]1 | MTT | concentration not given | 18 h | all tested concentrations | – | not toxic |
| CC(C)Cc1ccc(C(C)C(=O)NN=Cc2ccc(OCC(=O)NN=Cc3cccc([N+](=O)[O-])c3)cc2)cc1 (stereo not drawn) | MTT | 100 µM | 48 h | – | – | 94.3% |
| CC1(C)CC(=O)C2=C(C1)OC(N)=C(C#N)C2c1ccccc1F (stereo not drawn) | MTT | MCF7 IC50 | 24 h | – | – | 89.6% |
| NCC1OC(OC2C(N)CC(N)C(OC3OC(CO)C(O)C(N)C3O)C2OCCCCCCCCCCCCn2cc(CNc3nc(NCc4cn(CCCCCCCCCCCCOC5C(OC6OC(CN)C(O)CC6N)C(N)CC(N)C5OC5OC(CO)C(O)C(N)C5O)nn4)nc(NCc4cn(CCCCCCCCCCCCOC5C(OC6OC(CN)C(O)CC6N)C(N)CC(N)C5OC5OC(CO)C(O)C(N)C5O)nn4)n3)nn2)C(N)CC1O (stereo not drawn) | PrestoBlue | 2 µM | 48 h | – | untreated | 70% |
| COc1cccc(/C=N/NC(=O)COc2ccc(/C=N/NC(=O)C(C)c3ccc(CC(C)C)cc3)cc2)c1O (stereo not drawn) | MTT | 150 µM | 48 h | – | – | 39.4% |
| CC1(C)CC(=O)C2=C(C1)OC(N)=C(C#N)C2c1ccccc1 (stereo not drawn) | MTT | MCF7 IC50 | 24 h | – | – | 77.6% |
| CC(C)Cc1ccc(C(C)C(=O)N/N=C/c2ccc(OCC(=O)N/N=C/c3cccc(O)c3)cc2)cc1 (stereo not drawn) | MTT | 80 µM | 48 h | – | – | 49.6% |
| NC[C@H]1O[C@H](O[C@H]2[C@H](OCCCCCCCCCCCCn3cc(CNc4nc(NCc5cn(CCCCCCCCCCCCO[C@@H]6[C@@H](O)[C@H](N)C[C@H](N)[C@H]6O[C@H]6O[C@H](CN)[C@@H](O)C[C@H]6N)nn5)nc(NCc5cn(CCCCCCCCCCCCO[C@@H]6[C@@H](O)[C@H](N)C[C@H](N)[C@H]6O[C@H]6O[C@H](CN)[C@@H](O)C[C@H]6N)nn5)n4)nn3)[C@@H](O)[C@H](N)C[C@@H]2N)[C@H](N)C[C@@H]1O | PrestoBlue | 2 µM | 48 h | – | untreated | 100% |
